Assay results pooled from the literature.
Numbered parts are unrelated; each lists some results of a single study.
Sequence of UniProt Q8TDR2 (whole entry, looked up): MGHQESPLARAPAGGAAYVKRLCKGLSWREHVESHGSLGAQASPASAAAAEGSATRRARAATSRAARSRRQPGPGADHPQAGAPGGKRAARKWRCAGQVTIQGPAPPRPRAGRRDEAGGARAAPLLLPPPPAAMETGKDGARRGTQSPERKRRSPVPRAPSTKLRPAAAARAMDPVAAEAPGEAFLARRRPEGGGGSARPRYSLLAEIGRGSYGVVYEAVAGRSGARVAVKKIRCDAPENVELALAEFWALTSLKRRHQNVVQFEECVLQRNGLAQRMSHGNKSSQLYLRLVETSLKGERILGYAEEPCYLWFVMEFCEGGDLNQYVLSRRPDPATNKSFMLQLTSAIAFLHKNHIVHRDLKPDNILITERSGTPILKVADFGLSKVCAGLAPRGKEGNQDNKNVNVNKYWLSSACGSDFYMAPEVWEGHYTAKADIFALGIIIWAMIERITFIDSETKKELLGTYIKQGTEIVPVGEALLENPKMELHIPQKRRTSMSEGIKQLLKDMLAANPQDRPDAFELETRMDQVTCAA
Sequence of UniProt O43353 (whole entry, looked up): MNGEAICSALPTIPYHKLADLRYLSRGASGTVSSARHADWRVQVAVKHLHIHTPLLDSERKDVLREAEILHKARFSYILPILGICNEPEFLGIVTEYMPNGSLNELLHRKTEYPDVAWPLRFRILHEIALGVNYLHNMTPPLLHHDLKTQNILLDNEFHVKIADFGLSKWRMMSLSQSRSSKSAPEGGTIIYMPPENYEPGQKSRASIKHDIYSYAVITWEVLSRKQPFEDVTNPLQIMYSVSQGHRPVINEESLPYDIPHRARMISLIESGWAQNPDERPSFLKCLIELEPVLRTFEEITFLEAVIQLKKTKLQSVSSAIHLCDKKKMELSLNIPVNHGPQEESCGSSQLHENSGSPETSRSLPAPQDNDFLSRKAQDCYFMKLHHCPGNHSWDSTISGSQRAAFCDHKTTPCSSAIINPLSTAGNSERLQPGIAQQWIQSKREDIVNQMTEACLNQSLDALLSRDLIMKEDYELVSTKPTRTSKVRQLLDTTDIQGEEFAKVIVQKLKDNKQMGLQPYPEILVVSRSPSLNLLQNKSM
Sequence of UniProt O15197 (whole entry, looked up): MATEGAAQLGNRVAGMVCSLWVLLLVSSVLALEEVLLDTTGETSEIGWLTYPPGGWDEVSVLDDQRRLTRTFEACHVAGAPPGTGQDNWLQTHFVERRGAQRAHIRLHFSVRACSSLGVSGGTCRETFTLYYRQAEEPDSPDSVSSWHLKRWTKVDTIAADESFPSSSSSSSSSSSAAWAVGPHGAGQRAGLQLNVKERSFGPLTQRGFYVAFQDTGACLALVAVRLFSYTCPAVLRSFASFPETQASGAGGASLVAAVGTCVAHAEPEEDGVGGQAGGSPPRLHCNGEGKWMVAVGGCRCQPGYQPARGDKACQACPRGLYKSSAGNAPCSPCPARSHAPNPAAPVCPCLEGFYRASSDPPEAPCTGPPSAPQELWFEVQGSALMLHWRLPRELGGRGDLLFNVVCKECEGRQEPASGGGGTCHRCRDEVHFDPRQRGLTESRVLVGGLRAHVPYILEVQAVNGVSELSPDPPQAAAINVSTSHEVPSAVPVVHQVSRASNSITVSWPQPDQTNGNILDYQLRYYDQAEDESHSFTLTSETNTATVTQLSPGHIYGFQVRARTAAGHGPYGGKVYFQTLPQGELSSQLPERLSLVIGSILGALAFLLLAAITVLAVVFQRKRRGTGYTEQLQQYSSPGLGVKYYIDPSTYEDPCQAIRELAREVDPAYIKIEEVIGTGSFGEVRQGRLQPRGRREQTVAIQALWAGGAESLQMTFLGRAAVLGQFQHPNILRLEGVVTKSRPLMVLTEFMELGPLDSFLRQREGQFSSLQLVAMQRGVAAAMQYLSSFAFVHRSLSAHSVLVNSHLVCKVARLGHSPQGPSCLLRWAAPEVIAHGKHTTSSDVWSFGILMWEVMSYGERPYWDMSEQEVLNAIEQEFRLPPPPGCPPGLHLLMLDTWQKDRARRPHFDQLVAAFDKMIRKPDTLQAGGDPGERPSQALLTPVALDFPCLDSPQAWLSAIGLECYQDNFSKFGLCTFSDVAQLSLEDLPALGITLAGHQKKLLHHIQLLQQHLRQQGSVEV
Sequence of UniProt P68400 (whole entry, looked up): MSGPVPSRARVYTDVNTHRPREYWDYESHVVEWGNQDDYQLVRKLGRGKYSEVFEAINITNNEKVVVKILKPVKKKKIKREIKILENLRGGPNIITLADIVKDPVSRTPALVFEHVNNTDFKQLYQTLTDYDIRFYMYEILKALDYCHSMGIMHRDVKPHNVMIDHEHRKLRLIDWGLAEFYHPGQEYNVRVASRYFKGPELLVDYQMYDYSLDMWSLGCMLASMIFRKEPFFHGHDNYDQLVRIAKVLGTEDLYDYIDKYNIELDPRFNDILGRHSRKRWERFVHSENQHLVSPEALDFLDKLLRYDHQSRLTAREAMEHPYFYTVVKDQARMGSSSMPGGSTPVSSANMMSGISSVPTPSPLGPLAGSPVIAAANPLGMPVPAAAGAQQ
Sequence of UniProt Q08345 (whole entry, looked up): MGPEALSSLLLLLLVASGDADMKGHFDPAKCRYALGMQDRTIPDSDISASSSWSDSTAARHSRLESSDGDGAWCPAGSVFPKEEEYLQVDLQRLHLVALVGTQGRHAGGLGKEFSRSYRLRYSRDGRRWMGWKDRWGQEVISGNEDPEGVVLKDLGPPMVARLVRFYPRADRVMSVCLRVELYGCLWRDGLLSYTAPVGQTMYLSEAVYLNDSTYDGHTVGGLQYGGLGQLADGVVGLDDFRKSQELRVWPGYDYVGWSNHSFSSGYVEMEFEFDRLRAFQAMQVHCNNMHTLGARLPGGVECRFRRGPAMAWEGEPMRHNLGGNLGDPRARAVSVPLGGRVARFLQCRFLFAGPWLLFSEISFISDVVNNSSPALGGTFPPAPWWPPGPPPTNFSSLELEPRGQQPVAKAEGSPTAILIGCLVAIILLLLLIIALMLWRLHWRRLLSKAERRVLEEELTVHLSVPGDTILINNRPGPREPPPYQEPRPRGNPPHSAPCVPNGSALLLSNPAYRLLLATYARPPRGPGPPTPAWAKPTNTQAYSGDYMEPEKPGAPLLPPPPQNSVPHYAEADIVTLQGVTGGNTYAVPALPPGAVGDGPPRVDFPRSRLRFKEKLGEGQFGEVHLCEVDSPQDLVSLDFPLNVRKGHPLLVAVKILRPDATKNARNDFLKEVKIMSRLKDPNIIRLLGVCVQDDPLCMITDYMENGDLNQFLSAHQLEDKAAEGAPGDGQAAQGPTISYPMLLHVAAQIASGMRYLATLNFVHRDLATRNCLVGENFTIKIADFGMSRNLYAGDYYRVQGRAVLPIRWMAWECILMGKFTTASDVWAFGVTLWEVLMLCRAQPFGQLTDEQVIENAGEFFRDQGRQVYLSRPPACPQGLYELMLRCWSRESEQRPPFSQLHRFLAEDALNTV
Sequence of UniProt Q06418 (whole entry, looked up): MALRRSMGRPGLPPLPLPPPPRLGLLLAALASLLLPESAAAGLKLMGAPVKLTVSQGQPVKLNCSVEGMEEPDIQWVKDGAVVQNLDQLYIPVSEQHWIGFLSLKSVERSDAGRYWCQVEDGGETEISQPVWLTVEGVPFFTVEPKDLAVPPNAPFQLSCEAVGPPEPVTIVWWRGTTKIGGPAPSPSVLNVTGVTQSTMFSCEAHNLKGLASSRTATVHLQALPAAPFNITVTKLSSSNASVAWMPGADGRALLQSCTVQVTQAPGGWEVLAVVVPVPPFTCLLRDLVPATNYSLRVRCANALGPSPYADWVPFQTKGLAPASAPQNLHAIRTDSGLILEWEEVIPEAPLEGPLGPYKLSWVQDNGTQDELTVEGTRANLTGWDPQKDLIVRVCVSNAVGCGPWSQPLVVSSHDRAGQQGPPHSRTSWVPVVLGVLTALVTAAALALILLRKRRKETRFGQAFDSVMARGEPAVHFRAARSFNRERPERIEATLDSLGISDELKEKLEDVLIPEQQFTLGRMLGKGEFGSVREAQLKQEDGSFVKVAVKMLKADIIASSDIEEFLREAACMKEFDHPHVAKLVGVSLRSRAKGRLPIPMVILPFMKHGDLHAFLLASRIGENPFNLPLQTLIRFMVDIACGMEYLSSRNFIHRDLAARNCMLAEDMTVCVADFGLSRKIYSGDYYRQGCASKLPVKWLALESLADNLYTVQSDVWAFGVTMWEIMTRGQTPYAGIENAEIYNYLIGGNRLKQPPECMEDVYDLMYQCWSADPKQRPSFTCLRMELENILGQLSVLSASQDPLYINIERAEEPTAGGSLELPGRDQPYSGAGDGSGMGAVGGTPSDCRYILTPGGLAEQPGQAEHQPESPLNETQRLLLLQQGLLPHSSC
Sequence of UniProt Q99755 (whole entry, looked up): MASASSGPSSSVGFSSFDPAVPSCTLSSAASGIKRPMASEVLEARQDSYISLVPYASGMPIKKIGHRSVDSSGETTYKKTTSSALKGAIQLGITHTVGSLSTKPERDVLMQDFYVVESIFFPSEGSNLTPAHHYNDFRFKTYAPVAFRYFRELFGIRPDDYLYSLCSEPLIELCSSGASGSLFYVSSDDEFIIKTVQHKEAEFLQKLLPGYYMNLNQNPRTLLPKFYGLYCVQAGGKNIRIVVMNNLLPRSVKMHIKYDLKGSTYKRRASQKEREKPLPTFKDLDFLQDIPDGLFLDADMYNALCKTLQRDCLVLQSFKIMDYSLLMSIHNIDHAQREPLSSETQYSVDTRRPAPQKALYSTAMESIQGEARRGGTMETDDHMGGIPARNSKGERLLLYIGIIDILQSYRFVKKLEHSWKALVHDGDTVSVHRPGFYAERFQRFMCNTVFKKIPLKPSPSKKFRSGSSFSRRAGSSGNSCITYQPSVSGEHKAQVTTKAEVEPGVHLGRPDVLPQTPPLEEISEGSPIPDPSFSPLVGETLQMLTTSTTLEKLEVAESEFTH

Set 1
Target: Phosphate system positive regulatory protein PHO4, full length, GST-tagged (PHO4, Saccharomyces cerevisiae, UniProt P07270, residues 1-312)
Technique: competition protein-binding microarray
Form: double-stranded DNA, one strand shown
Matrix: in vitro
Concentration: 2 µM
Setting: whole 60-bp probe, lowest competitor level
Added: Cbf1 competitor, 0.05 µM
Reading: higher = stronger binding
Shared flanks, not repeated: … GTCTTGATTCGCTTGACGCTGCTG
Target sequence (chain): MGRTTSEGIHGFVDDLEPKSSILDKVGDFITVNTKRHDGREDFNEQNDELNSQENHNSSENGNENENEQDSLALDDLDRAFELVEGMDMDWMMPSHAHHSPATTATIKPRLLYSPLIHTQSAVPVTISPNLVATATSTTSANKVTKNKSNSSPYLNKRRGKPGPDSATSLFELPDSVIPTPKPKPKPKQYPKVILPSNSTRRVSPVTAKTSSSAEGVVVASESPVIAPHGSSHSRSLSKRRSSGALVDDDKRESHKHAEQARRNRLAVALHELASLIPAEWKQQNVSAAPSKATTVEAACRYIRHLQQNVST
| Strand | fluorescence intensity |
| --- | --- |
| ATTACCTTGGCCCTTCACGGGCGGGTTCCTCGGAAT | 4400 a.u. |
| AGCACCCTGGTATTTCTCGTGATGGTCTGCCCTTCA | 4040 a.u. |
| GCCAAGCAGCGTCCGCACGTTGGAACTTTTTCGCCG | 10900 a.u. |
| CAATGGGTAAGCAGAGGCGTGCGATCCCTGTGTGGT | 10500 a.u. |
| TTATTCAAATGAAATACAATTCTTTTCAAAGTTTGG | 2670 a.u. |
| TCGCTCTTTTCACTGCTCGTGCCGATGCAACGCTCC | 9600 a.u. |
| TGCGCAACAACTTGGTCTGTGGGTGTATGTCTAGAA | 4870 a.u. |
| GACTTGACAGAGTGGCACGAGGCTCTGCCCATCTGT | 12100 a.u. |

Set 2
Target: Cyclic AMP-dependent transcription factor ATF-1, full length (ATF1, Homo sapiens, UniProt P18846, residues 1-271)
Technique: protein-binding microarray
Form: hairpin DNA
Matrix: in vitro
Concentration: not given
Setting: whole hairpin DNA, median over replicate spots
Baseline: not given
Reading: higher = stronger binding
Shared flanks, not repeated: GAGGCCG … CGGCCTCACACTC
Target sequence (chain): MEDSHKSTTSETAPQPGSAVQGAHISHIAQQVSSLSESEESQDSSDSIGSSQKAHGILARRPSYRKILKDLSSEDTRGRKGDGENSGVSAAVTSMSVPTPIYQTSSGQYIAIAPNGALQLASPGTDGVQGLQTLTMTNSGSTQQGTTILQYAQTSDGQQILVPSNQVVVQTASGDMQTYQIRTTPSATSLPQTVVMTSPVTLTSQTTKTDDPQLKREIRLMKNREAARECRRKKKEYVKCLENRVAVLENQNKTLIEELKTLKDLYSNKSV
| Strand | median fluorescence |
| --- | --- |
| GATGACGTCGGCCTCCTGGCCGACGTCATC (5mC at 16 28) | 10200 a.u. |
| GATGACGTAAGCCTCCTGGCTTACGTCATC | 11200 a.u. |
| GCTGACGTTAGCCTCCTGGCTAACGTCAGC | 4990 a.u. |
| GCCGACGTCAGCCTCCTGGCTGACGTCGGC (5mC at 34) | 4540 a.u. |
| ACGACCGCGTGCCTCCTGGCACGCGGTCGT (5mC at 9 13 15 29 31 35) | 3650 a.u. |
| GATGACGTGAGCCTCCTGGCTCACGTCATC | 8100 a.u. |
| ACGCGGTCGTGCCTCCTGGCACGACCGCGT (5mC at 9 11 15 29 33 35) | 3410 a.u. |
| ACCGCGTCGTGCCTCCTGGCACGACGCGGT (5mC at 9 10 15 29 34) | 4620 a.u. |

Set 3
Structure (SMILES): Cc1nc(Cc2cccc(C(F)(F)F)c2)sc1-c1ccc(C(N)=O)nc1
Technique: competition with immobilised ligand
Concentration: 1 µM
| target | observed | remaining binding [%] |
| --- | --- | --- |
| RAF proto-oncogene serine/threonine-protein kinase (RAF1, Homo sapiens, UniProt P04049) | cell-free assay | 70 |
| Serine/threonine-protein kinase 35 (STK35, Homo sapiens, UniProt Q8TDR2) | cell-free assay | 100 |
| Serine/threonine-protein kinase MAK (MAK, Homo sapiens, UniProt P20794) | binding | 81 |
| Ephrin type-B receptor 3 (EPHB3, Homo sapiens, UniProt P54753) | cell-free assay | 100 |
| Leucine-rich repeat serine/threonine-protein kinase 2 (LRRK2, Homo sapiens, UniProt Q5S007, G2019S) | cell-free assay | 82 |
| Receptor-interacting serine/threonine-protein kinase 2 (RIPK2, Homo sapiens, UniProt O43353) | cell-free assay | 100 |
| ALK tyrosine kinase receptor (ALK, Homo sapiens, UniProt Q9UM73) | cell-free assay | 99 |
| Epithelial discoidin domain-containing receptor 1 (DDR1, Homo sapiens, UniProt Q08345) | cell-free assay | 100 |
| Casein kinase II subunit alpha (CSNK2A1, Homo sapiens, UniProt P68400) | cell-free assay | 100 |
| Epidermal growth factor receptor (EGFR, Homo sapiens, UniProt P00533, del752-759) | cell-free assay | 100 |
| Mitogen-activated protein kinase kinase kinase kinase 3 (MAP4K3, Homo sapiens, UniProt Q8IVH8) | cell-free assay | 76 |
| Mitogen-activated protein kinase kinase kinase 11 (MAP3K11, Homo sapiens, UniProt Q16584) | cell-free assay | 100 |
| Phosphatidylinositol 4-phosphate 5-kinase type-1 alpha (PIP5K1A, Homo sapiens, UniProt Q99755) | cell-free assay | 100 |
| Hepatocyte growth factor receptor (MET, Homo sapiens, UniProt P08581) | cell-free assay | 63 |
| Ephrin type-B receptor 6 (EPHB6, Homo sapiens, UniProt O15197) | cell-free assay | 100 |
| Serine/threonine-protein kinase PRP4 homolog (PRPF4B, Homo sapiens, UniProt Q13523) | cell-free assay | 70 |
| Tyrosine-protein kinase receptor TYRO3 (TYRO3, Homo sapiens, UniProt Q06418) | cell-free assay | 99 |
| Rho-associated protein kinase 1 (ROCK1, Homo sapiens, UniProt Q13464) | cell-free assay | 69 |
| Serine/threonine-protein kinase Nek10 (NEK10, Homo sapiens, UniProt Q6ZWH5) | cell-free assay | 100 |

Set 4
Species: mouse
Matrix: microsomes or S9
Concentration: 2 µM
Time: 0.5 h
| SMILES | remaining compound |
| --- | --- |
| CCN1CCCC1CN(Cc1cccnc1)Cc1cccc(Oc2ncccn2)c1 (stereo not drawn) | 4.34% |
| CC1CCCC(C)C1NC(=O)Nc1cc(C#N)cn1C(C)(C)C (stereo not drawn) | 2.57% |
| CS(=O)(=O)N1CCC[C@@H]1CNc1ncnc2nc[nH]c12 | > 100% |

Other studies, line by line
| SMILES | technique | matrix | pH | measurement | result |
| --- | --- | --- | --- | --- | --- |
| CCC[C@@H]1NC(=O)CSC[C@@H](C(=O)OCC)N(C)C(=O)[C@H](CC(C)C)NC(=O)[C@H](C)N(C)C(=O)[C@@H](CC(C)C)NC(=O)[C@H](C)N(C)C(=O)[C@@H]2CCCN2C(=O)[C@H](CC(C)C)NC(=O)CN(C)C1=O | PRP chromatography estimate | 1,9-decadiene/PBS | pH 7.4 | logD | -0.348 |

Repeated from above (set 2):
| Strand | median fluorescence |
| --- | --- |
| ACGACCGCGTGCCTCCTGGCACGCGGTCGT (5mC at 9 13 15 29 31 35) | 3650 a.u. |
| ACCGCGTCGTGCCTCCTGGCACGACGCGGT (5mC at 9 10 15 29 34) | 4620 a.u. |
| ACGCGGTCGTGCCTCCTGGCACGACCGCGT (5mC at 9 11 15 29 33 35) | 3410 a.u. |
| GATGACGTCGGCCTCCTGGCCGACGTCATC (5mC at 16 28) | 10200 a.u. |
| GATGACGTGAGCCTCCTGGCTCACGTCATC | 8100 a.u. |
| GATGACGTAAGCCTCCTGGCTTACGTCATC | 11200 a.u. |
| GCTGACGTTAGCCTCCTGGCTAACGTCAGC | 4990 a.u. |
